Assay results pooled from the literature.
Lines come from different studies, so protocols differ. Numbers after ± are the reported error.
UGT1A4: UDP-glucuronosyltransferase 1A4 (UGT1A4, Homo sapiens, UniProt P22310)
UniProt P22310, sequence (whole entry, looked up): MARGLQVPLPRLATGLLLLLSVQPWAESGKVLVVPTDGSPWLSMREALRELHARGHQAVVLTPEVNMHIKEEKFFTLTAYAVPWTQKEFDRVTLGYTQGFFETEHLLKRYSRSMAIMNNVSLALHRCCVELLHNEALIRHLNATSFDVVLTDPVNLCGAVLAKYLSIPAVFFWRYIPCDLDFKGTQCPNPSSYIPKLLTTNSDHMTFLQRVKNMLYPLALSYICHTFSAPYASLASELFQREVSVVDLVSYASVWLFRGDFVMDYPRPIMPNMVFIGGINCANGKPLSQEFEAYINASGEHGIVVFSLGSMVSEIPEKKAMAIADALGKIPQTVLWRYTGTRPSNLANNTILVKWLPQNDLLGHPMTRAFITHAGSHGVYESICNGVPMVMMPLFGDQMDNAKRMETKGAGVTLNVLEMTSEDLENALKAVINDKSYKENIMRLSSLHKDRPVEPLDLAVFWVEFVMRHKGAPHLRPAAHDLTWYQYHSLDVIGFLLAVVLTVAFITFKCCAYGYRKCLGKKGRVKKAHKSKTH
PIM2: Serine/threonine-protein kinase pim-2 (PIM2, Homo sapiens, UniProt Q9P1W9)
UniProt Q9P1W9, sequence (whole entry, looked up): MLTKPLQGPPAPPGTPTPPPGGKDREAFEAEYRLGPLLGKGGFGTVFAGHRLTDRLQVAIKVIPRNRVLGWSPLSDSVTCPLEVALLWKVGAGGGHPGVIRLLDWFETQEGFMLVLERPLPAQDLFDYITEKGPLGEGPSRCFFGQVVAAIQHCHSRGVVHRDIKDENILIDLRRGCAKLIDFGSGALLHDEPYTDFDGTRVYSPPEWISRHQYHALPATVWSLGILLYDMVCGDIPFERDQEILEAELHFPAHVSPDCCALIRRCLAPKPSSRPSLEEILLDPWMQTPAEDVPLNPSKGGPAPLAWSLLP
DDR1: Epithelial discoidin domain-containing receptor 1 (DDR1, Homo sapiens, UniProt Q08345)
UniProt Q08345, sequence (whole entry, looked up): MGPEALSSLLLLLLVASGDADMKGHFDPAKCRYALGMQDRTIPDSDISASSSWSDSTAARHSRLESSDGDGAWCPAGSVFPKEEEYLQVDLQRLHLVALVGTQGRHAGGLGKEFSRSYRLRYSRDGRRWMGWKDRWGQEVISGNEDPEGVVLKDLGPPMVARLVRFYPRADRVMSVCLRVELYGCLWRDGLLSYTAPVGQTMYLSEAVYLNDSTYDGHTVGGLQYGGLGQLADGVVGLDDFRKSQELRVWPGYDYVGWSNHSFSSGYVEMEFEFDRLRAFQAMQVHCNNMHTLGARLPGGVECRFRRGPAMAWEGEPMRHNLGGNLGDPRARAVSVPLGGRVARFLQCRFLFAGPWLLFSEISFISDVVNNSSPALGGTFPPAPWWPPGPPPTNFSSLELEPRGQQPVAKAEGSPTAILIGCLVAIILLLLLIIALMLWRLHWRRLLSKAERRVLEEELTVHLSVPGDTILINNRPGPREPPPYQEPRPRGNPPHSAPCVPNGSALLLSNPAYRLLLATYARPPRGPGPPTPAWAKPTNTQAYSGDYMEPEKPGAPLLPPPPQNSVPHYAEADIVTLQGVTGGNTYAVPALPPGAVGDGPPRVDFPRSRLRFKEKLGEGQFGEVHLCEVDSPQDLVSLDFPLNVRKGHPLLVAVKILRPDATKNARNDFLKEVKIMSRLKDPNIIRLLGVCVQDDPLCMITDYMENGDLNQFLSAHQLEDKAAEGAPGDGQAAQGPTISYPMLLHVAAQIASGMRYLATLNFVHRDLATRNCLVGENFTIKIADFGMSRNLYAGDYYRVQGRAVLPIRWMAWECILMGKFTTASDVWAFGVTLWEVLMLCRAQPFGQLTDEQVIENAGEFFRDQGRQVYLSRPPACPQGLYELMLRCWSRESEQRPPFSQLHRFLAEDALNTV
UniProt O00238, sequence (whole entry, looked up): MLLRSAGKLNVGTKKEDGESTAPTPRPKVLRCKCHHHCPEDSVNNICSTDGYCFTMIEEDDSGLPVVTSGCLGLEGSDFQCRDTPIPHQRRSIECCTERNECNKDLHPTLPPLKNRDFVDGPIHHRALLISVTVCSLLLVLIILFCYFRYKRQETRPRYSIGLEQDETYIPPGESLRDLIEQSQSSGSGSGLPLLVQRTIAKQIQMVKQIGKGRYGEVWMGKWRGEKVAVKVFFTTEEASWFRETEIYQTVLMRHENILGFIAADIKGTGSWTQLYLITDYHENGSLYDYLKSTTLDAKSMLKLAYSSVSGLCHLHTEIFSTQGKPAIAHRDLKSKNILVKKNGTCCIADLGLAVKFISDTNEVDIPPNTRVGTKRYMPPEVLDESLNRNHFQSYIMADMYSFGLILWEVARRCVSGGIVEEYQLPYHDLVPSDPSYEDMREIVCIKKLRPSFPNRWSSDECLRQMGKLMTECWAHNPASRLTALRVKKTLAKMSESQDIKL
UniProt Q9UM73, sequence (whole entry, looked up): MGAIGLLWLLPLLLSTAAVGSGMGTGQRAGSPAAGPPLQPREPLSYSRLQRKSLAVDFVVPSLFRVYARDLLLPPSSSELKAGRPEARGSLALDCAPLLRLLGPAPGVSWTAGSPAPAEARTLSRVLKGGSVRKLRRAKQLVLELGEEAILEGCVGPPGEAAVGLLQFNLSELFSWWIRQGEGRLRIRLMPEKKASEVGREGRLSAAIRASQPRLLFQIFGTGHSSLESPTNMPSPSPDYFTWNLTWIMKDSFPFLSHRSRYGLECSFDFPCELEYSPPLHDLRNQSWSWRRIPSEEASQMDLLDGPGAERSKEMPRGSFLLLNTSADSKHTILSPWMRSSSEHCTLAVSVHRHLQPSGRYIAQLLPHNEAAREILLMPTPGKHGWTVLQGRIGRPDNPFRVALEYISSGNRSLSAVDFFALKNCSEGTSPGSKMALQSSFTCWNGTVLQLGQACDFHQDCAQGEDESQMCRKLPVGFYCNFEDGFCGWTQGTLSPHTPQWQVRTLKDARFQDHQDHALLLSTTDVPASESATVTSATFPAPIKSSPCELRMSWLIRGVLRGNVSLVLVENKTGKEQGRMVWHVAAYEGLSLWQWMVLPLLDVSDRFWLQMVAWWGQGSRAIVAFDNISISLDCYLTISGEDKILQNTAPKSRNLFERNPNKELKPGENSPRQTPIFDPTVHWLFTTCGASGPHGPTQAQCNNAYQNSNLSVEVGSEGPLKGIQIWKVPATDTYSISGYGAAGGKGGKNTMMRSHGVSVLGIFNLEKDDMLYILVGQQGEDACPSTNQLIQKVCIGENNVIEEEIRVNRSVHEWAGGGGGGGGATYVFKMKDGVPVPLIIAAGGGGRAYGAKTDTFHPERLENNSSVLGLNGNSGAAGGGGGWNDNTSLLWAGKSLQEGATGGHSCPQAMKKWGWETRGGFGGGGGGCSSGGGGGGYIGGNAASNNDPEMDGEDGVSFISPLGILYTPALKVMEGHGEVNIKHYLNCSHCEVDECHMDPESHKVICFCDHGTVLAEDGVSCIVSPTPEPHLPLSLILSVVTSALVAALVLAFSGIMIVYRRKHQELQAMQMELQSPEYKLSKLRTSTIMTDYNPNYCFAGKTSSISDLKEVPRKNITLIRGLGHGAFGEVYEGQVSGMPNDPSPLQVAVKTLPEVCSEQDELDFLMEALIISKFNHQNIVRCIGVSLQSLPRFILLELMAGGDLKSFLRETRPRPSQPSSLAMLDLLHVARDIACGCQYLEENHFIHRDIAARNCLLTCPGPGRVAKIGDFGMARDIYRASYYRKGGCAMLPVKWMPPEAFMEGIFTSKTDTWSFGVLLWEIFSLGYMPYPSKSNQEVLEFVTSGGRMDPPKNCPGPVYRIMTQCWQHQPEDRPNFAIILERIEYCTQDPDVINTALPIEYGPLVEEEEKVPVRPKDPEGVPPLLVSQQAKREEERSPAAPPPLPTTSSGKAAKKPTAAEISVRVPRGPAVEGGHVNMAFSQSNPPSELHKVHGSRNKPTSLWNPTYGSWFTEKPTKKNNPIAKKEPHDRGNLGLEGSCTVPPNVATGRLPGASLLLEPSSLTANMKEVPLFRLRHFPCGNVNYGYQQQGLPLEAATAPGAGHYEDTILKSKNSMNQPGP
UniProt Q92947, sequence (whole entry, looked up): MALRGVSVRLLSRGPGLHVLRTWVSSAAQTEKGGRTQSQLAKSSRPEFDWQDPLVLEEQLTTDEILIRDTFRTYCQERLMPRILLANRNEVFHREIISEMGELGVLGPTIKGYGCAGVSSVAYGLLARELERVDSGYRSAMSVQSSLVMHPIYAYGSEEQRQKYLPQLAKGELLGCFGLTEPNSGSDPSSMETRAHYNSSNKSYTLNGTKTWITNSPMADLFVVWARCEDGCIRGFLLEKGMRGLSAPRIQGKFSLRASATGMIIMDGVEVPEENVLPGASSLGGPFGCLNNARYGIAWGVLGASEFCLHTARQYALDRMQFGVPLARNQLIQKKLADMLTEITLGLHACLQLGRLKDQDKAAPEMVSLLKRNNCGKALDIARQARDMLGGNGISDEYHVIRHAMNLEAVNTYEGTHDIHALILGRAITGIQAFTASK
UniProt P49137, sequence (whole entry, looked up): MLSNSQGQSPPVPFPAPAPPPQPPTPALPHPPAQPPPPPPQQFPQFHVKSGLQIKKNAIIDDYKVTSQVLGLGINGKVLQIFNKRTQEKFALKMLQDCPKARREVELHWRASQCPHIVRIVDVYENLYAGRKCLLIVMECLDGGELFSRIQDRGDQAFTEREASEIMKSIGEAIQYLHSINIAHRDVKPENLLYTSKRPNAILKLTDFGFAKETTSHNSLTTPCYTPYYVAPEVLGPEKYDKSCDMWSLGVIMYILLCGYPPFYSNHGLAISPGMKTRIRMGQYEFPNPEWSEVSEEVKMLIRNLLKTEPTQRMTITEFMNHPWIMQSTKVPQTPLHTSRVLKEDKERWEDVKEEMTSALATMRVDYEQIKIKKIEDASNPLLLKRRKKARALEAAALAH

O=C(O)c1ccc(Nc2ncc3c(n2)-c2ccc(Cl)cc2C(c2c(F)cccc2F)=NC3)cc1 — remaining activity (PKCι(h); kinase activity; 1 µM): 109%
CCOc1cc(N2CCN(C)CC2)ccc1Nc1nc(N)n(C(=O)NCc2ccccc2S(=O)(=O)C(C)C)n1 — remaining activity (Epidermal growth factor receptor (EGFR, Homo sapiens, UniProt P00533); enzyme activity; 10 µM; relative to: control): 12%
O=c1cc(-c2ccc(O)c(-c3c(O)cc(O)c4c(=O)cc(-c5ccc(O)cc5)oc34)c2)oc2cc(O)cc(O)c12 — remaining activity (UGT1A4; glucuronidation, inhibitor; human liver microsomes; 1 µM, together with: probe substrate 50 µM; relative to: no inhibitor): ~80%
O=C(NC1CCC1)c1ccc2nc(-c3cccc(NS(=O)(=O)NCCN4CCCCC4)c3)cn2c1 — remaining activity (Tyrosine-protein kinase receptor Tie-1 (TIE1, Homo sapiens, UniProt P35590); enzyme activity; 10 µM): 100%
C[C@@H]1CC[C@@]2(OC1)O[C@H]1C[C@H]3[C@@H]4CC[C@H]5C[C@@H](O)CC[C@]5(C)[C@H]4CC(=O)[C@]3(C)[C@H]1[C@@H]2C — remaining activity (UGT1A4; glucuronidation, inhibitor; human liver microsomes; 100 µM, together with: probe substrate 0.5 µM; relative to: no inhibitor): ~8%
Cc1cc(NC(=O)c2cccc(NC(=O)/C=C/CN(C)C)c2)ccc1Nc1nccc(-c2cccnc2)n1 — remaining activity (Mitogen-activated protein kinase 8 (MAPK8, Homo sapiens, UniProt P45983); enzyme activity, inhibitor; 0.5487 µM, 0 h, unit not given, together with: GSH 10 mM pre-incubation; relative to: vehicle): 0.149
c1cnc2ccc(Nc3nc(NC4CC4)c4nc[nH]c4n3)cc2c1 — remaining activity (PIM2; kinase activity, inhibitor, SelectScreen kinase profiling; 1 µM; relative to: control): 102%
COc1ccc(F)cc1C(=O)NCc1ccc(-c2nn([C@@H](C)C(F)(F)F)c(N)c2C(N)=O)cc1 — remaining activity (DDR1; kinase activity, inhibitor, HotSpot radiometric; 1000 nM, together with: ATP at Km): 87.8 ± 3.7%
COc1cc(-c2cncc3c2CN(C)Cc2cc(N4CCNCC4)ccc2-3)cc(OC)c1OC — remaining activity (G protein-coupled receptor kinase 3 (GRK3, Homo sapiens, UniProt P35626); kinase activity; 1 µM, human enzyme, together with: ATP 10 µM; relative to: DMSO control): 95%
COc1cc(N2CCN(C)CC2)ccc1Nc1nc(N)n(C(=O)NCc2ccccc2S(=O)(=O)C(C)C)n1 — remaining activity (ALK tyrosine kinase receptor (ALK, Homo sapiens, UniProt Q9UM73); enzyme activity; 10 µM; relative to: control): 5.3%
O=C1NC(=O)/C(=C/c2ccc(-c3ccc(F)cc3O)o2)S1 — remaining activity (VEGFR; enzyme activity; 10 µM): 22%
Cc1cc(Nc2cc(N3CCN(C)CC3)nc(Sc3ccc(NC(=O)C4CC4)cc3)n2)[nH]n1 — remaining activity (Ephrin type-A receptor 4 (EPHA4, Homo sapiens, UniProt P54764); kinase activity, KinaseProfiler; 0.03 µM, species human; relative to: control): 97%
NC/C(=C\F)COc1cccc(Cn2c(=S)[nH]c(=O)c3[nH]cnc32)c1 — remaining activity (Peroxidasin homolog (PXDN, Homo sapiens, UniProt Q92626); Amplex UltraRed; 20 µM, mean of replicates; relative to: control): 23.1%
COc1cc(Nc2ncc3c(n2)-c2ccc(Cl)cc2C(c2c(F)cccc2OC)=NC3)ccc1C(=O)O — remaining activity (NEK1; kinase activity; 1 µM): 97%
COc1cc(F)ccc1-c1ncnc(Nc2cccc(C[S@](C)(=N)=O)c2)n1 — remaining activity (PIM2; kinase activity; 10 µM, together with: 10 µM ATP): 88%
Nc1ncc2c(n1)-c1c([nH]c3ccc(-c4ccc(F)cc4)cc13)CCC2 — remaining activity (Testis-specific serine/threonine-protein kinase 1 (TSSK1B, Homo sapiens, UniProt Q9BXA7); kinase activity, inhibitor, radiometric; 1 µM, together with: ATP at Km): 79%
CCCCCCCCCCCCCCNC(=O)/C=C/c1ccc(O)c(O)c1 — remaining activity (Alpha-glucosidase MAL12 (MAL12, Saccharomyces cerevisiae S288c, UniProt P53341); enzyme activity; 20 µM, together with: α-amylase present): 7.48 ± 6.85%
COc1cc(N2CCN(C)CC2)ccc1Nc1nc(N)n(C(=S)NCc2c(Cl)cccc2Cl)n1 — remaining activity (MAP kinase-activated protein kinase 2 (MAPKAPK2, Homo sapiens, UniProt P49137); enzyme activity; 10 µM; relative to: control): 20%
C=CC(=O)N1CCC([C@@H]2CCNc3c(C(N)=O)c(-c4ccc(Oc5ccccc5)cc4)nn32)CC1 — remaining activity (Dual specificity mitogen-activated protein kinase kinase 1 (MAP2K1, Homo sapiens, UniProt Q02750); kinase activity, inhibitor, HotSpot radiometric; 100 nM, together with: ATP 10 µM): 111 ± 1.9%
C=CC(=O)N1CCC[C@@H](n2nc(-c3ccc(Oc4ccccc4)cc3)c3c(N)ncnc32)C1 — remaining activity (Glutaryl-CoA dehydrogenase, mitochondrial (Homo sapiens, UniProt Q92947); 1 µM): 57.4%
CC(C)OCCn1c(=S)[nH]c(=O)c2[nH]ccc21 — remaining activity (Myeloperoxidase (MPO, Homo sapiens, UniProt P05164); LDL lipid peroxidation, inhibitor, cholesteryl ester hydroperoxide; 0.0412 µM): 105%
CNc1ncc2c(/C=C/C(=O)N3CCC(OC)CC3)nn(Cc3cccc(C(F)(F)F)c3)c2n1 — remaining activity (Bone morphogenetic protein receptor type-1B (BMPR1B, Homo sapiens, UniProt O00238); kinase activity, inhibitor; 1 µM; relative to: untreated control): 85%
CC#CC(=O)N1CCC[C@H]1c1nc(-c2ccc(C(=O)Nc3ccccn3)cc2)c2c(N)nccn12 — remaining activity (DDR1; kinase activity, inhibitor, HotSpot radiometric; 100 nM, together with: ATP 10 µM): 87.05 ± 0.6%
CNCC(=O)O — remaining activity (Sodium- and chloride-dependent glycine transporter 1 (SLC6A9, Homo sapiens, UniProt P48067, G373S); glycine uptake, inhibitor; 2000 µM, together with: [3H]glycine; relative to: no inhibitor): 105%
C=CC[C@@H]1c2ccc(OC)c(OC)c2CN2CCc3cc4c(cc3[C@H]12)OCO4 — remaining activity (P2X purinoceptor 7 (Ailuropoda melanoleuca, UniProt G1M6C4); ATP-evoked current, inhibitor, whole-cell patch clamp; HEK293 transfected; 0.1 µM, wild type): 99.7%
FC(F)c1nc2ccccc2n1-c1nc(N2CCOCC2)nc(N2CCOCC2)n1 — remaining activity (VEGFR; enzyme activity; 10 µM): 87%

Excerpt of the above:
COc1ccc(F)cc1C(=O)NCc1ccc(-c2nn([C@@H](C)C(F)(F)F)c(N)c2C(N)=O)cc1 — remaining activity (DDR1; kinase activity, inhibitor, HotSpot radiometric; 1000 nM, together with: ATP at Km): 87.8 ± 3.7%
COc1cc(-c2cncc3c2CN(C)Cc2cc(N4CCNCC4)ccc2-3)cc(OC)c1OC — remaining activity (G protein-coupled receptor kinase 3 (GRK3, Homo sapiens, UniProt P35626); kinase activity; 1 µM, human enzyme, together with: ATP 10 µM; relative to: DMSO control): 95%
COc1cc(N2CCN(C)CC2)ccc1Nc1nc(N)n(C(=O)NCc2ccccc2S(=O)(=O)C(C)C)n1 — remaining activity (ALK tyrosine kinase receptor (ALK, Homo sapiens, UniProt Q9UM73); enzyme activity; 10 µM; relative to: control): 5.3%
